Experimental data collected from several papers.
Parts stem from different laboratories: compare values within a part only. Positions count from the first letter of the parent shown.

Set 1 — method: protein binding microarray; form: double-stranded DNA, one strand shown; medium: in vitro; tested at: not given; baseline: not given; direction: higher = stronger binding
Target: Histone acetyltransferase KAT6A, winged helix 2, GST fusion (KAT6A, Homo sapiens, UniProt Q92794, residues 85-181)
Notes: 8-mer, flanks averaged, mean of 2 arrays, mostly near background
Construct (chain): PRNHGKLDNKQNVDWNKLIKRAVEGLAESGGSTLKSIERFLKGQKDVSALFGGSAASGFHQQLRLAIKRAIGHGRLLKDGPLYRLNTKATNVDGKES
Sequence | E-score
CCTCGTCC | -0.0189
CTGAACTA | -0.0719
CAACCCAG | -0.0419
AGCGAGAC | -0.0642
GCCGCCCA | 0.101
ATGCATCG | 0.0269
ACCCAGAC | 0.12
CAATCAGG | 0.0601
AAAATCCG | 0.117
CTTAGGTC | 0.014
AGCGACCT | -0.0801
AAGTGTAG | -0.142
CCTGTTAA | -0.0271
CGAAAGCG | 0.0374
CCCTGCCC | 0.0961
CCGCGATA | 0.0991
CCACGTCG | -0.0411
AATTAGCG | -0.131
GGGTTACA | 0.00126
CGGTCGAG | -0.0143
AACTCTAC | -0.172
CGTGTCGC | 0.176

Set 2 — method: protein-binding microarray; form: double-stranded DNA, one strand shown; medium: in vitro; tested at: not given; direction: higher = stronger binding
Target: Max dimerization protein 1, bHLH-zipper, MAX partner unstated (MXD1, Homo sapiens, UniProt Q05195, residues 56-136)
Notes: k-mer, scored over probes, only values ≥0.25
Construct (chain): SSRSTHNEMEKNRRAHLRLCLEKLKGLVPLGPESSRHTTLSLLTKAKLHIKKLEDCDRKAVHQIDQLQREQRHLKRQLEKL
Sequence | E-score
CACGCGCC | 0.431
CCACGAGG | 0.445
CTGTGCGC | 0.261
CCTCATGA | 0.333
ATGCCATG | 0.303
ACGGGGCG | 0.336
ACGAGGAC | 0.37
ATGCGGGA | 0.273
ATCCACAT | 0.395
CATCGTGG | 0.306
CATGCCCC | 0.39
CCACGTTA | 0.382

Set 3 — method: protein-binding microarray; form: double-stranded DNA, one strand shown; medium: in vitro; tested at: 2200 nM top; notes: 60-bp whole probe; with: salmon DNA 0.4 mg/ml; baseline: random background probes; direction: higher = stronger binding; all sequences stand within: GCCTAGCAC … GTCTTGATTCGCTTGACGCTGCTG
Target: Interferon regulatory factor 7, full length, phosphomimetic (IRF7, Homo sapiens, UniProt Q92985, residues 1-503, S471D/S472D/S475D/S476D/S477D/S483D/S484D/S487D)
Residues (chain): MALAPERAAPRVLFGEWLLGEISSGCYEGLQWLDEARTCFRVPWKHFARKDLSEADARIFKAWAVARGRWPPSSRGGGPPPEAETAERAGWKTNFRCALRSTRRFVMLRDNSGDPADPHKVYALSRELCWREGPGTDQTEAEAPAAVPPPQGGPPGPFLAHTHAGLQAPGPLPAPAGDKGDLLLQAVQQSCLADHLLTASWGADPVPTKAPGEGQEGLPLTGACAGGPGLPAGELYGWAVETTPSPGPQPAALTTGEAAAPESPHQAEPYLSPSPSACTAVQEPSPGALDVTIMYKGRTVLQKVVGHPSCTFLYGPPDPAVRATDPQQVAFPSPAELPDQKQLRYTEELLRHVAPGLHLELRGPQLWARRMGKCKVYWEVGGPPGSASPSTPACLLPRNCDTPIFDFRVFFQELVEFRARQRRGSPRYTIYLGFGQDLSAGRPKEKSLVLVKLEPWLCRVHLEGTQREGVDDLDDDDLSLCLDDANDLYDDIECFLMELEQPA
Sequence | fitted relative affinity
TTAGATATCAGTATAGATTAGTGCTAG | -0.136 z-score
TTAGGACTGGACTTTCGGGTAGTGCTA | 3.13 z-score
GACGAGATCGGGTATCGAGACGTGCTA | 0.0456 z-score
TTAGGACTCCTACTGCTTTAGTGCTAG | 0.562 z-score
GAGGGTTTCGGTATCGGGACGTGCTAG | 5.19 z-score
TCAACTCTAATATTGAGACTGTGCTAG | -0.236 z-score
TCATTTCTGTGTCACAGACTGTGCTAG | 2.17 z-score
CTTTACTTCACTCTCTGCTTGTGCTAG | 1.78 z-score
TCCAATTCTCTTTTCACTTTGTGCTAG | 3.87 z-score
TTAGGTATCGAAACTGGGTTAGTGCTA | 0.777 z-score
GTCGGTCTCCTACTGCTGACGTGCTAG | 1.29 z-score
GACAGACTGGGGTATCGGGACGTGCTA | -0.673 z-score
TTACATATCGGGTTTCGATTAGTGCTA | 3.89 z-score
AGCCGTCTCCACCTGGGCAAGTGCTAG | -0.455 z-score
TTAGGACTGCTACTGCTTTAGTGCTAG | -0.157 z-score
GACGGACCGGGGACTGGGGACGTGCTA | -0.841 z-score
TGAGGACTGGGGTTTCGGTTAGTGCTA | 2.43 z-score
TTAGGTTTTCTTCTCCTTTAGTGCTAG | 1.62 z-score

Set 4 — method: RNA Bind-n-Seq; form: RNA; medium: in vitro; tested at: 365 nM; baseline: no-protein control; direction: higher = stronger binding
Target: RNA binding protein fox-1 homolog 2, RRM domain, GST-SBP tag (RBFOX2, Homo sapiens, UniProt O43251-10, residues 100-194)
Notes: natural RNA segment, single round, ends assumed
All sequences stand within: GGGAGUUCUACAGUCCGACGAUC … UGGAAUUCUCGGGUGCCAA
Target sequence (chain): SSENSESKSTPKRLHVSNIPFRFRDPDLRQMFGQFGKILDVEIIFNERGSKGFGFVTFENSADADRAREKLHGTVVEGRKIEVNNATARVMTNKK
Sequence | RBNS enrichment (R)
AUCCUGUAAUUCUAGAAUUACCUGGUGUCCUGAUGCAUUUUCCACUAGAGGUUGCUAAUCAGCAUGUUUUAGCCCAAGUCCGCCUUCCUGCUGUGGUUAACCUGUUAUGU | 9.27
AAUUCCAUCAAAUACUUGCUGUGUAAAUGUUUCUGGACUUUAUGUUAUUUAAUUUACUGACUGAAAUCCAAUUUGGAAUUUGGUAGCAGUUAAUUCAAGCCAAUUUUUUU | 0.514
AACCCCAUACUUCACCUAAUGGUAGGGGCUUGCUUGUUUUGCACAGGAUUAAUUAACAAGUUAAUUUUAAGGUGGCCACUGUACACUGCUCUAAAGUCAUAUCCCCUCCC | 0.444
CCACCCGUGACUGUAAGAAUGCUCUCUGGGAGGACUUCCACCGGGGCAGAGCAGGCUGCCCAGCCGAAGCGGGAAGGGCAUGUUGGGCAAGCUGCUGGAGCGACUGAUGU | 1.61
UGUAGCUCAGAGUGCUUGUCUAACAUGCAAAAACCCUUGGAUUCAAUUUCUAGUACUGUUAGAAGAGUGACUAGUUAGAUUCUGUGUAUGUGUGCUAUUAAUUCAUAGAA | 1.05
GCAGCUCCCCAGUGGACAGUGUCAUUGUGCCCAGAGUGCUGCAAGGUGAGGCCUGCUGUGCUGCCCGCACACCUGAGUGCAAAACCAAGCACUGUGGGCAUGGUGUUUCC | 0.232
UUCUGCUGUCAGAGUGUCUAAGAGACCCAGUUGGGCUGAAAGACAUGCUCUGUGCACAGGCACAGAGGACAUCUAACAAGAUCAUCGGACCCUAAUGCAAGUUCCAUGUU | 0.269
AAGACUUAAGCCUUUUUUUAAGUAAUUAAUACUUAAAAAAAAAGAUCCUGGCAUCUAUUUAUGCAACUAAAUACUUUUCAGAAAUGGUAUAUAAAAGGCUACAGUUUAAU | 0.778
GUUCAUUAGAGCAGUCUGGCCACUGGGGUGCCAGUUCGUUGGCCUUCCACGCUGAGGUACCCUCUGCAGUGGUAGGCAGCCUGCCCAUAUGGCCACUUGGGCCUGACUCU | 0.276
UAAGCUCCCAAGAUCUAUGUUCCUGGGAGUUUCCCAAACUCAUGAUGGAGUUGGUGACAAGAGCAGAGGAGCAAGAAUCCCUGCAAGCAGUAGACUGGUUUCCACUGGAG | 0.212
GCAAAGCCCAGGUUCUUGUUCCACACAGUGUAAUGUAGGUGUAUUUUGGACAGCACAUAUGGUCCAUUGUGUACAAGUCAGUAAUCUGGAUUUCAGUACAUGGAUUUAAA | 0.673
GAAAUGUUGACACUCAGUGAUGUGCUGUGCAUCUUGAGGUCAGCAGGCACUAACCUGGCACCUUUUACUCCAGCUGGUAGAGCUAGAGCUAAUGUGUACAGGUGUCCUGG | 0.513

Set 5 — method: DHFR PCA, deep sequencing; medium: yeast; with: (+)-ABA 0.11 µM; baseline: wild-type fitted maximum; direction: higher = stronger binding
Target: ABI1, truncated, D143A, DHFR fusion (Arabidopsis thaliana)
Notes: methotrexate growth selection, single substitutions
Starting sequence: PYL1, truncated, DHFR fusion (Arabidopsis thaliana); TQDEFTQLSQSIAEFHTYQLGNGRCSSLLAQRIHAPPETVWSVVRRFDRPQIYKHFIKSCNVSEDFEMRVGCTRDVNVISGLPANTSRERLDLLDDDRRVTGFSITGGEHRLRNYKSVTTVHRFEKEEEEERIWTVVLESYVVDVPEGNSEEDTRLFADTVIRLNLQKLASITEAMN; partner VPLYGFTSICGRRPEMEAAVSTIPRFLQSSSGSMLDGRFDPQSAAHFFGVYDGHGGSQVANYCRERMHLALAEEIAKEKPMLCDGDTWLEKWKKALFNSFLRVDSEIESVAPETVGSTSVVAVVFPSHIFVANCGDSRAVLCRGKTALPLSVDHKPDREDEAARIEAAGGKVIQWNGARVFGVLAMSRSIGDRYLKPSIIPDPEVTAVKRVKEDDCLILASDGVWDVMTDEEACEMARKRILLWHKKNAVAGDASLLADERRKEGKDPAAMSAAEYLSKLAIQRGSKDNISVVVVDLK
Substitution | relative binding score
N22C | 15.6%
E14P | -20.6%
K58R | 26.5%
R32V | 51%
Y141W | -5.62%
V142E | 11.6%
V118F | -4.45%
V161H | 42.1%
G21K | 26.8%
N114G | 9.09%
E139G | -6.7%
R98V | -7.12%
A84E | 22%

Set 6 — target: CCNE1, cyclin fold, Cln2 fusion (human); method: yeast growth competition, sequencing; medium: yeast; notes: strong parent motif; baseline: not given; direction: higher = stronger binding
Starting sequence: PKMYT1 docking peptide (human); SFEPRNLLSLFED
Substitution | normalised enrichment score
FFEPRNLLSLFED [S1F] | 2.05
SFEPENLLSLFED [R5E] | 1.06
SFEPRNLLSLFEL [D13L] | 2.58
EFEPRNLLSLFED [S1E] | 1.29
CFEPRNLLSLFED [S1C] | 2.04
SFEPRNLLSAFED [L10A] | 2.52
SFEPTNLLSLFED [R5T] | 1.49
SFEPRNLLSFFED [L10F] | 1.91
SFEPRNLLSLHED [F11H] | 0.747
SFEPRNLLSLGED [F11G] | 0.0419
SFEPNNLLSLFED [R5N] | 0.69
SFEPRNTLSLFED [L7T] | 0.477
SFEPRNLLSLFPD [E12P] | 0.575
SFEPRNLLSLFEI [D13I] | 1.94
SFEVRNLLSLFED [P4V] | 1.18
SFEPRNLLSLMED [F11M] | 0.484
SFEPRNLLMLFED [S9M] | 1.46

Some of these lines once more (set 3):
Sequence | fitted relative affinity
TTAGGACTGGACTTTCGGGTAGTGCTA | 3.13 z-score
GACGAGATCGGGTATCGAGACGTGCTA | 0.0456 z-score
TTAGGACTCCTACTGCTTTAGTGCTAG | 0.562 z-score
GAGGGTTTCGGTATCGGGACGTGCTAG | 5.19 z-score
TCAACTCTAATATTGAGACTGTGCTAG | -0.236 z-score
TCATTTCTGTGTCACAGACTGTGCTAG | 2.17 z-score
CTTTACTTCACTCTCTGCTTGTGCTAG | 1.78 z-score
TCCAATTCTCTTTTCACTTTGTGCTAG | 3.87 z-score
TTAGGTATCGAAACTGGGTTAGTGCTA | 0.777 z-score
GTCGGTCTCCTACTGCTGACGTGCTAG | 1.29 z-score
GACAGACTGGGGTATCGGGACGTGCTA | -0.673 z-score
TTACATATCGGGTTTCGATTAGTGCTA | 3.89 z-score
AGCCGTCTCCACCTGGGCAAGTGCTAG | -0.455 z-score
TTAGGACTGCTACTGCTTTAGTGCTAG | -0.157 z-score
